Measurements from different studies.
A part holds a random share of what one study measured.
UniProt Q8WVN8, sequence (whole entry, looked up): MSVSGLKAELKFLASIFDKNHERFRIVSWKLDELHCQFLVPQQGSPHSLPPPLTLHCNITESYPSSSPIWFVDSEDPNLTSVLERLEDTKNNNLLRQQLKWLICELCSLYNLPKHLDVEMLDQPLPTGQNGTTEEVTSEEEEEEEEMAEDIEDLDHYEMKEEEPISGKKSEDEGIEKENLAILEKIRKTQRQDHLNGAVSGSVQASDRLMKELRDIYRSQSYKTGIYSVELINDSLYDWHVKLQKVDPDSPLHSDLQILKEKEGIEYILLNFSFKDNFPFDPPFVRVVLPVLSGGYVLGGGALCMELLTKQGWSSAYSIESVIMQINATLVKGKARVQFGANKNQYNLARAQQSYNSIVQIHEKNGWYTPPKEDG
UniProt P62256, sequence (whole entry, looked up): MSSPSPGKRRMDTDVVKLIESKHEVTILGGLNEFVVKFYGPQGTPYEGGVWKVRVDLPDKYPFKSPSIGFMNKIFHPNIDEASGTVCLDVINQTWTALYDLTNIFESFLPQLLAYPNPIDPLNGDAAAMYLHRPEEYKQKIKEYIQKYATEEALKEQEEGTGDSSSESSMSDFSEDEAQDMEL
UniProt Q13404, sequence (whole entry, looked up): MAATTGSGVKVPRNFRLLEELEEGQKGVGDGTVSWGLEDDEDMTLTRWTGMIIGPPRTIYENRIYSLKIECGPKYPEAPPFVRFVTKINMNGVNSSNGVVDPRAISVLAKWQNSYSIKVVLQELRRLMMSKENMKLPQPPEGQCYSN
UniProt Q15819, sequence (whole entry, looked up): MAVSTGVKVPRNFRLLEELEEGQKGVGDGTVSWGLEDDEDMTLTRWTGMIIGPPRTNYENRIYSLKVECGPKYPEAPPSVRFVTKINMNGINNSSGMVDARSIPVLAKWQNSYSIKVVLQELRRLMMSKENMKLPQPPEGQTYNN
UniProt Q96LR5, sequence (whole entry, looked up): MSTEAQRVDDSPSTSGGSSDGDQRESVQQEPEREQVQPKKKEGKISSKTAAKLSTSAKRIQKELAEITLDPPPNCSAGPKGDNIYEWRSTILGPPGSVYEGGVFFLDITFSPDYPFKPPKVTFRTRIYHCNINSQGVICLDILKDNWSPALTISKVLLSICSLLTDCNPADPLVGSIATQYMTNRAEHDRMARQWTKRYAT
UniProt Q5VVX9, sequence (whole entry, looked up): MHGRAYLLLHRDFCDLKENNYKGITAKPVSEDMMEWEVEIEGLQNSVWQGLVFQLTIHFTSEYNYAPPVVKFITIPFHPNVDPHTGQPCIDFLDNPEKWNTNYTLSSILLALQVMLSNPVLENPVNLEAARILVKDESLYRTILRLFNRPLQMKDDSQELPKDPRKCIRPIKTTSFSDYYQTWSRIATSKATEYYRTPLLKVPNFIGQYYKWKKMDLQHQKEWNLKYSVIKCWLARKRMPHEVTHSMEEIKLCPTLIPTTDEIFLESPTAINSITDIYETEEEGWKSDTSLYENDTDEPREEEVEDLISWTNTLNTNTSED
UniProt P60604, sequence (whole entry, looked up): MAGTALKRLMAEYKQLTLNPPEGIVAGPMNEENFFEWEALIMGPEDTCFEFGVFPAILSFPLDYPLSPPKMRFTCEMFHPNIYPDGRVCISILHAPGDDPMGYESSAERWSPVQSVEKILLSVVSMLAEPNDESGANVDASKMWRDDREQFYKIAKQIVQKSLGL
UniProt P49427, sequence (whole entry, looked up): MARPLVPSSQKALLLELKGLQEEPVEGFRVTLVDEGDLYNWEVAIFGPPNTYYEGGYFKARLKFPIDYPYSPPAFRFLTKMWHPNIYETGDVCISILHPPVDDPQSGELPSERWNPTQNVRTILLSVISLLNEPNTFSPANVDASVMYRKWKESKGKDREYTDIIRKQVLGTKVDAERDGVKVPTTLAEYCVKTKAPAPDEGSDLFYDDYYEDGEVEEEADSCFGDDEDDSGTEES
UniProt P51965, sequence (whole entry, looked up): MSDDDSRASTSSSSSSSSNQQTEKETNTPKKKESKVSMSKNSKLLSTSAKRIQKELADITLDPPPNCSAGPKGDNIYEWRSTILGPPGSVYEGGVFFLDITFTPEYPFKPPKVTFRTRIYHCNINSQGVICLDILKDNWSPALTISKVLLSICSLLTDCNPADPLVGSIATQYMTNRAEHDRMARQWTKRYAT
UniProt O14933, sequence (whole entry, looked up): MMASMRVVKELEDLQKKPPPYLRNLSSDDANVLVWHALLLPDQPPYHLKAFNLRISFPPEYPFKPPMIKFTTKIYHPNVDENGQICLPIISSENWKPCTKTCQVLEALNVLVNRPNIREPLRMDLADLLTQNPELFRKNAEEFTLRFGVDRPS
UniProt P61088, sequence (whole entry, looked up): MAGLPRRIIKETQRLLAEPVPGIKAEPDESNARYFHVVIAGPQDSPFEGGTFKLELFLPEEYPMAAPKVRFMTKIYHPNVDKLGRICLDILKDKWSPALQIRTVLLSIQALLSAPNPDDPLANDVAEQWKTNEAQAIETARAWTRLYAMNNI

Sample 1
Molecule: RNF26 RING domain (UniProt Q9BY78)
UniProt Q9BY78, sequence (whole entry, looked up): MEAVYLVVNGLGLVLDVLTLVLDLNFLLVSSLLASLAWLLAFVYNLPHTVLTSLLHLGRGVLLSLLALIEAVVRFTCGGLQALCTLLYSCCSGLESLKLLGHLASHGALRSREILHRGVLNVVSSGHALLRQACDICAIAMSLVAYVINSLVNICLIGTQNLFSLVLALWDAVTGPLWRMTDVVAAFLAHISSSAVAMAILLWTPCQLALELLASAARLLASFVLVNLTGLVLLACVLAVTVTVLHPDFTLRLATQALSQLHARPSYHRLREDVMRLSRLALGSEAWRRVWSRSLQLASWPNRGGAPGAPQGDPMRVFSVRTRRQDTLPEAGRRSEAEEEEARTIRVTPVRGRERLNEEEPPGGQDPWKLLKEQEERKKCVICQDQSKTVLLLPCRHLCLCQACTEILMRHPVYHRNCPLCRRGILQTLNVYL
Method: yeast two-hybrid
Sample: yeast
Setting: mostly zero background
Reference: not given
Direction: higher = stronger interaction
| target | lacZ reporter activity |
| --- | --- |
| UBE2L6 UBC core domain (UniProt O14933) | 0 |
| UBE2G2 UBC core domain (UniProt P60604) | 9780 |
| UBE2V2 UBC core domain (UniProt Q15819) | 0 |
| CDC34 UBC core domain (UniProt P49427) | 0 |
| UBE2E1 UBC core domain (UniProt P51965) | 2840 |
| UBE2U UBC core domain (UniProt Q5VVX9) | 11700 |
| UBE2V1 UBC core domain (UniProt Q13404) | 0 |
| UBE2H UBC core domain (UniProt P62256) | 0 |
| UBE2N UBC core domain (UniProt P61088) | 9020 |
| UBE2Q2 UBC core domain (UniProt Q8WVN8) | 0 |
| UBE2E2 UBC core domain (UniProt Q96LR5) | 0 |

Sample 2
Target: Fragile X messenger ribonucleoprotein 1, C-terminal low-complexity region (Fmr1, Mus musculus, UniProt P35922)
Method: RNA Bind-n-Seq
Form: RNA
Sample: in vitro
Concentration: 200 nM
Setting: whole 134-nt RNA, ends assumed
With: 150 mM KCl
Reference: input library
Direction: higher = stronger binding
All sequences stand within: GGGAGUUCUACAGUCCGACGAUC … UGGAAUUCUCGGGUGUCAAGG
| Sequence | log2 enrichment |
| --- | --- |
| AGUCCUGUGCUACACAUCGUAUGUACCGAAUCGGCCCCCGGCCCCCGGCCCCCGGGGAAAGUAUUAUGUUACGCCGUUCGGAUCUGCACU | -0.143 |
| AAGUCCUGUGCUACACAUCGUAUGUACCGAAUCAAACCCAAACCCAAAUUUUUAAAAAAGUAUUAUGUUACGCCGUUCGGAUCUGCACUU | -0.201 |
| AGUCCUGUGCUACACAUCGUAUGUACCGAAUCGGGCCCCCGGCCCCCGGCCCCCGGGAAAGUAUUAUGUUACGCCGUUCGGAUCUGCACU | -0.517 |
| GUCCUGUGCUACACAUCGUAUGUACCGAAUCAAACCCCCAAAUUUUUAAAUUUUUAAAAAAGUAUUAUGUUACGCCGUUCGGAUCUGCAC | 0.276 |
| GUCCUGUGCUACACAUCGUAUGUACCGAAUCGGGUGGGAAAAAAAGGGAAAAAAAGGGAAAGUAUUAUGUUACGCCGUUCGGAUCUGCAC | 0.0959 |
| UAACUUUAGAGGAGGAUGUGAUGGAUAUGGCAGUGGACGUGGAUUUGGGGAUGGCUAUAAUGGGUAUGGAGGAGGACCUGGAGGUGGCAA | 0.231 |
| AAGUCCUGUGCUACACAUCGUAUGUACCGAAUCGGGUUUGGGUUUUUGGGAAAGGGAAAGUAUUAUGUUACGCCGUUCGGAUCUGCACUU | 0.687 |
| AAGUCCUGUGCUACACAUCGUAUGUACCGAAUCGGAGGUUUUUUUGGAAAAAAAGGAAAGUAUUAUGUUACGCCGUUCGGAUCUGCACUU | -1.03 |
| UGGCCCUGGUGGCAUGCGGGGAGGAAGAGGUGGCCUCAUGGAUCGUGGUGGUCCCGGUGGAAUGUUCAGAGGUGGCCGUGCUGGAGACAG | -0.155 |
| CCUCAAGUCCUGUGCUACACAUCGUAUGUACCGAAUCGGAGGGGAGGGGAGGGAAAGUAUUAUGUUACGCCGUUCGGAUCUGCACUUCCA | 1.16 |

Sample 3
Target: Sal-like protein 4, full length isoform B (SALL4, Homo sapiens, UniProt Q9UJQ4-2, residues 1-616)
Method: universal PBM
Form: double-stranded DNA, one strand shown
Sample: in vitro
Concentration: not given
Setting: 8-mer, flanks averaged, mean of replicates
Direction: higher = stronger binding
Construct (chain): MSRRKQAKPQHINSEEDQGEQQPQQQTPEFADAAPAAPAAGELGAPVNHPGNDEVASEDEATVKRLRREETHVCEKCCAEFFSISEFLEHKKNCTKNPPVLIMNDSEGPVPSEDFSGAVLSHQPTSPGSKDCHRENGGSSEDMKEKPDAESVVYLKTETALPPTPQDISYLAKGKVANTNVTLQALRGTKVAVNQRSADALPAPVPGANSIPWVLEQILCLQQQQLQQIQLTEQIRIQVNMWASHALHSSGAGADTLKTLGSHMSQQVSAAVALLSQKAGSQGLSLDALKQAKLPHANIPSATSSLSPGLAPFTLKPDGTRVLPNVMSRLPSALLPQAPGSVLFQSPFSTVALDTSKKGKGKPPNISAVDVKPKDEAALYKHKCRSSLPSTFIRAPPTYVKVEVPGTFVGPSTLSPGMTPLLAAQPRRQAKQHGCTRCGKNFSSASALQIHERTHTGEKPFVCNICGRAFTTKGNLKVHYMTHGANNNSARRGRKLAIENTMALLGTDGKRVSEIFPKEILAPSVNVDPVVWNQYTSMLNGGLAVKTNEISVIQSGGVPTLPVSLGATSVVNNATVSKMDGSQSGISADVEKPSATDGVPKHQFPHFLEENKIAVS
| Sequence | E-score |
| --- | --- |
| GCAGAGGC | -0.159 |
| GAAAATCA | 0.239 |
| ATATTGGG | 0.233 |
| GACCTAAC | -0.101 |
| AATGTAGT | 0.192 |
| GGCATGGA | -0.0411 |
| GCGGGATA | -0.1 |
| CTTGGTAA | 0.146 |
| ATTGACCA | 0.0911 |
| CGCTCCAA | -0.16 |
| TAGCCCCA | -0.142 |
| GAGCTCAC | -0.301 |
| AGGTTCCG | -0.117 |
| ACGTATCG | 0.135 |
| CTTCTCTA | -0.0133 |
| AAGTTAGC | 0.131 |
| CAATGATG | 0.135 |
| AGATACCG | 0.0716 |
| CGTCAGCC | -0.269 |
| CGGATACG | -0.265 |
| CACACAAA | 0.169 |
| AGGCGCCT | -0.219 |
| CGCGCACC | -0.196 |
| GTTTGAGA | -0.0293 |
| CCCTGGCC | -0.299 |

Sample 4
Target: Histone acetyltransferase KAT6A, winged helix 2, GST fusion (KAT6A, Homo sapiens, UniProt Q92794, residues 85-181)
Method: protein binding microarray
Form: double-stranded DNA, one strand shown
Sample: in vitro
Concentration: not given
Setting: 8-mer, flanks averaged, mean of 2 arrays, mostly near background
Reference: not given
Direction: higher = stronger binding
Residues (chain): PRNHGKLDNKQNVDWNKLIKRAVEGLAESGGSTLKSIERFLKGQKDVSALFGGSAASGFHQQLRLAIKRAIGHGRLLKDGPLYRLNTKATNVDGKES
| Sequence | E-score |
| --- | --- |
| CCCGAATC | 0.136 |
| AATGATAC | -0.0522 |
| GACTCCAA | -0.165 |
| CTCTGCGC | 0.096 |
| ATGGTTAG | -0.0897 |
| GATGTCAA | -0.133 |
| AGTTCCAC | -0.0749 |
| GAGCCCCC | -0.248 |
| AATATTCT | -0.188 |
| ACCTTCTA | 0.00651 |
| CCGTGCAA | 0.0368 |
| CGTGCACC | -0.0125 |
| ATCCAGAA | -0.0156 |
| AGCCCGAT | 0.0541 |
| GGGGCACC | 0.244 |
| ACCCTGAT | -0.0874 |

Sample 5
Target: Interferon regulatory factor 7, full length, phosphomimetic (IRF7, Homo sapiens, UniProt Q92985, residues 1-503, S101K/S471D/S472D/S475D/S476D/S477D/S483D/S484D/S487D)
UniProt Q92985, sequence (whole entry, unmodified, looked up): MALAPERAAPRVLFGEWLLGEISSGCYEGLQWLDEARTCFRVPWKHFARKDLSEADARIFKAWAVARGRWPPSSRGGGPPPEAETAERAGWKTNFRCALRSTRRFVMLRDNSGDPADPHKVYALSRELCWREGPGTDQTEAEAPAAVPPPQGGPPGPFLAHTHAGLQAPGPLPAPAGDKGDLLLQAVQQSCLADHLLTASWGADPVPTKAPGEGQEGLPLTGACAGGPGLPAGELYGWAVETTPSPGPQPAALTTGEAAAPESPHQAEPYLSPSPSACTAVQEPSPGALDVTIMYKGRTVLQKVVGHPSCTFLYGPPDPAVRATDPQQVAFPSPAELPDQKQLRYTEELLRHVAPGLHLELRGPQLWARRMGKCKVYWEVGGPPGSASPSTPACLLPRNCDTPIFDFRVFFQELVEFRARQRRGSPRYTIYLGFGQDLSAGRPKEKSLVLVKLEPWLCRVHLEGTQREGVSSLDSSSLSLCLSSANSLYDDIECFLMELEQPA
Method: protein-binding microarray
Form: double-stranded DNA, one strand shown
Sample: in vitro
Concentration: 250 nM
Setting: 60-bp whole probe
With: salmon DNA 0.4 mg/ml
Reference: random background probes
Direction: higher = stronger binding
All sequences stand within: GCCTAGCAC … GTCTTGATTCGCTTGACGCTGCTG
| Sequence | log fluorescence [z-score] |
| --- | --- |
| TCAGCTCCCTTTCTCTCACTGTGCTAG | 0.307 |
| GACGGTATCCTTGTCCTGACGTGCTAG | -0.16 |
| TTAGGGATCCTACTGCTTTAGTGCTAG | -0.622 |
| TTTGGTTTCGGGACTGGGTTAGTGCTA | 4.93 |
| GACGATCTCAGGCTCGAGACGTGCTAG | 0.0823 |
| AACGGACTGCTTATCCTGACGTGCTAG | -0.173 |
| GACGCACTGGGGTATCGAGACGTGCTA | -0.469 |
| GACGGTATCGGTTGCGGGACGTGCTAG | 0.635 |
| TTAGGGATCGGTCTCGGTTAGTGCTAG | 1.66 |
| TTCGGTTTCCTTATCCTTTAGTGCTAG | 3.72 |
| GACGGACTGGACTGTCGGGACGTGCTA | -0.848 |
| CCACTTTCCATTTCTGTTTTTGTGCTA | 4.33 |
| TTAGGTTTCGGATTTCGGTTAGTGCTA | 10.7 |
| GACGATATCGGGATTCGAGACGTGCTA | 0.139 |
| GACGATATCAGGACTGGAGACGTGCTA | -0.183 |
| TTAGGTTTCAGTTTCGATTAGTGCTAG | 11.8 |
| TTAGATTTCAGTCTCCATTAGTGCTAG | 0.821 |
| ATATATATATATACAGATATGTGCTAG | 3.38 |
| TTAGAACTGAGTTTCGAATAGTGCTAG | 3.26 |

For quick reference, copied from above (sample 3):
| Sequence | E-score |
| --- | --- |
| CTTCTCTA | -0.0133 |
| CGCGCACC | -0.196 |
| GCAGAGGC | -0.159 |
| TAGCCCCA | -0.142 |
| ACGTATCG | 0.135 |
| AGATACCG | 0.0716 |
| GAGCTCAC | -0.301 |
| AGGTTCCG | -0.117 |
| ATTGACCA | 0.0911 |
| GGCATGGA | -0.0411 |
| ATATTGGG | 0.233 |
